Results pooled from the literature.
Each line is one published result; not all experiments were run side by side. ± gives the spread as reported.

C[C@]12CC[C@@H]3c4ccc(O)cc4CC[C@H]3[C@@H]1C[C@@H](O)[C@@H]2O — median serum concentration (GC-MS; breast cancer women on NSAI, serum; vaginal, 0.03 mg daily, 6 h, day 28): 0 ng/mL
CC(C)NC[C@@H](C(=O)N1CCN(c2ncnc3c2[C@H](C)C[C@H]3O)CC1)c1ccc(Cl)cc1 — Vz/F (human, Healthy hepatic function (Child-Pugh), plasma; oral, 100 mg single dose, geometric mean): 21900 L
Cc1cc(C)c2c(c1)[C@@H](N(Cc1cc(C(F)(F)F)cc(C(F)(F)F)c1)c1nnn(C)n1)CCCN2C[C@H]1CC[C@H](C(=O)O)CC1 — AUC(0-tau) at steady state (human, dyslipidemic patients, plasma; oral, 500 mg daily, monotherapy, geometric mean): 19700 ng·h/mL
CS(=O)(=O)n1cc2c(n1)CN([C@H]1CO[C@H](c3cc(F)ccc3F)[C@@H](N)C1)C2 — AUC(0-168 h) (healthy Japanese men, plasma; oral, 10 mg single dose, fed, geometric mean): 8.75 µM·h
CS(=O)(=O)n1cc2c(n1)CN([C@H]1CO[C@H](c3cc(F)ccc3F)[C@@H](N)C1)C2 — AUC(0-last) (healthy male human, plasma; oral, 5 mg, fasted single dose): 4.7 µM·h
CCN1C(=O)CNc2ncc(-c3ccc(-c4nc[nH]n4)nc3C)nc21 — AUC(0-24h) (human, plasma; oral, 8 mg once daily, multiple doses): 286 ng·h/mL
CC(=O)N[C@H](CSSC[C@H](N)C(=O)O)C(=O)N[C@H](C)C(=O)N[C@H](CCCNC(=N)N)C(=O)N[C@H](CCCNC(=N)N)C(=O)N[C@H](CCCNC(=N)N)C(=O)N[C@H](C)C(=O)N[C@H](CCCNC(=N)N)C(N)=O — reverse disulfide exchange rate constant (human whole blood; 37 °C, from biotransformed products): 0.0025 min⁻¹
Cn1c(-c2ccc(C(N)=O)cc2F)nnc1C(C)(C)Oc1c(F)cc(Cl)cc1F — Ctrough (young non-Japanese healthy subjects, plasma; oral, 0.2 mg once daily, 3 mg loading day 1, mean, last dosing day): 0.552 ng/mL
CO/N=C1\C[C@]2(C[C@@H]3C[C@@H](C/C=C(\C)C[C@@H](C)/C=C/C=C4\CO[C@@H]5[C@H](O)C(C)=C[C@@H](C(=O)O3)[C@]45O)O2)O[C@H](/C(C)=C/C(C)C)[C@H]1C — MRT (HPLC, non-compartmental; Corriedale lambs, parasitized, plasma; subcutaneous, 0.2 mg/kg): 141 ± 18.2 h
CC[C@H](C)[C@H](NC(=O)[C@H](C)NC(=O)[C@H](CCCNC(=N)N)NC(=O)[C@H](CCCNC(=N)N)NC(=O)[C@H](CC(N)=O)NC(=O)[C@H](CCCNC(=N)N)NC(=O)[C@H](CCCNC(=N)N)NC(=O)[C@H](C)NC(=O)[C@@H](NC(=O)[C@H](CC(C)C)NC(=O)[C@@H](NC(=O)[C@@H](NC(=O)[C@H](CS)NC(=O)[C@H](CCCCN)NC(=O)[C@@H](N)CCCNC(=N)N)C(C)C)[C@@H](C)CC)C(C)C)C(=O)N[C@H](C(=O)N[C@H](C(=O)N[C@@H](CC(C)C)C(=O)N[C@@H](CS)C(=O)N[C@@H](CCCNC(=N)N)C(=O)O)[C@@H](C)CC)C(C)C — single disulfide form (LC-MS; PBS; 0.1 mg/mL): 43%
O=C(N/N=C/c1ccc([N+](=O)[O-])o1)c1ccc(O)cc1 — EC20 (mitochondrial swelling; BALB/cByJ female mouse liver mitochondria; 30 min, added: succinate + rotenone; reference: CaCl2 maximal swelling): > 400 µM
COc1ccc(C(=O)O)cc1OS(=O)(=O)O — mean concentration (human, fasted baseline, cerebrospinal fluid): 18.8 nM
OC[C@H]1O[C@@](CO)(O[C@H]2O[C@H](CO)[C@@H](O)[C@H](O)[C@H]2O)[C@@H](O)[C@@H]1O — EC20 (cytochrome c release, ELISA; BALB/cByJ female mouse liver mitochondria; 30 min; reference: alamethicin maximal release): > 800 µM
O=C(c1cccnc1-c1ccncc1)N1CCC(O)(Cc2ccccc2)CC1 — AUCinf (healthy human, plasma; oral, 600 mg once daily, day 1, arithmetic mean): 4220 ng·h/mL
Nc1ccc(S(=O)(=O)c2ccc(N)cc2)cc1 — EC20 (cytochrome c release, ELISA; BALB/cByJ female mouse liver mitochondria; 30 min; reference: alamethicin maximal release): > 400 µM
CCN(CC)CCNC(=O)c1c(C)[nH]c(/C=C2\C(=O)Nc3ccc(F)cc32)c1C — median trough plasma concentration (human, plasma; oral, 20 mg/m2, day 14): 31 ng/mL

Repeated from above:
C[C@]12CC[C@@H]3c4ccc(O)cc4CC[C@H]3[C@@H]1C[C@@H](O)[C@@H]2O — median serum concentration (GC-MS; breast cancer women on NSAI, serum; vaginal, 0.03 mg daily, 6 h, day 28): 0 ng/mL
